Experimental data of several laboratories.
Parts stem from different laboratories: compare values within a part only. Changes are numbered by the printed parent chain.
Sequence of UniProt P10721 (whole entry, unmodified, looked up): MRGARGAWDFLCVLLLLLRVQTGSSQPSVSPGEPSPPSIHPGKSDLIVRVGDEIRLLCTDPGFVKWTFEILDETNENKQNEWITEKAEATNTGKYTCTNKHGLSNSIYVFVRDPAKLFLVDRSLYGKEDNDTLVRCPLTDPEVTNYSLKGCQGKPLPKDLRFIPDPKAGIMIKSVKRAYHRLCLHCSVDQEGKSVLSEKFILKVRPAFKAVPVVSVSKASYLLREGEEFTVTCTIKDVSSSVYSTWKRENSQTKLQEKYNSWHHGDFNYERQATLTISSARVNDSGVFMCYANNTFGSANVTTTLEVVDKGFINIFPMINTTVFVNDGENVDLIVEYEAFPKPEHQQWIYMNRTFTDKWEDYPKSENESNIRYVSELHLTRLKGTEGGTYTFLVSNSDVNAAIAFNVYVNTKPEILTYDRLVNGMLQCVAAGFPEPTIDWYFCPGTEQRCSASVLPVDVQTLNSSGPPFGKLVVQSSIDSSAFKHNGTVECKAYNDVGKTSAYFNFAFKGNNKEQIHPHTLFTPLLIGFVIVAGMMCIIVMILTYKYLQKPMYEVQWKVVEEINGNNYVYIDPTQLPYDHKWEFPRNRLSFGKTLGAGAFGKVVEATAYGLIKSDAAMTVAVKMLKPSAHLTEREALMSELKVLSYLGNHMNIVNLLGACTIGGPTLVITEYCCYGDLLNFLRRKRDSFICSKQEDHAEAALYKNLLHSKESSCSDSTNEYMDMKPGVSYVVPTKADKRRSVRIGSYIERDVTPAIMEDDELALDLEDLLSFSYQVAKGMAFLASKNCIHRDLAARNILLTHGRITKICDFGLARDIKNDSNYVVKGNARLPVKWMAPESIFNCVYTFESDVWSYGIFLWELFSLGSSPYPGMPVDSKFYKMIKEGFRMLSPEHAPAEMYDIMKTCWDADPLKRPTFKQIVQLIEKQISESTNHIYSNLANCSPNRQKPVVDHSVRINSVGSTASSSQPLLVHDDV
Sequence of UniProt Q00532 (whole entry, looked up): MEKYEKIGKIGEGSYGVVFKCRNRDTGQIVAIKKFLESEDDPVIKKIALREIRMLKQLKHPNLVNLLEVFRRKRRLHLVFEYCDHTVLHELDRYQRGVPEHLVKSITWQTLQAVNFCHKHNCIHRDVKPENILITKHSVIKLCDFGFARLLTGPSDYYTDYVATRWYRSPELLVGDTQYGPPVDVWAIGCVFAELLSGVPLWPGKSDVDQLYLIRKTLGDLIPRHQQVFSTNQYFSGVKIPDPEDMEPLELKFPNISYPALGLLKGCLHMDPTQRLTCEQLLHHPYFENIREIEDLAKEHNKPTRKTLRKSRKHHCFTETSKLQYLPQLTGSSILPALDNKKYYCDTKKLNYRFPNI
Sequence of UniProt P37173 (whole entry, looked up): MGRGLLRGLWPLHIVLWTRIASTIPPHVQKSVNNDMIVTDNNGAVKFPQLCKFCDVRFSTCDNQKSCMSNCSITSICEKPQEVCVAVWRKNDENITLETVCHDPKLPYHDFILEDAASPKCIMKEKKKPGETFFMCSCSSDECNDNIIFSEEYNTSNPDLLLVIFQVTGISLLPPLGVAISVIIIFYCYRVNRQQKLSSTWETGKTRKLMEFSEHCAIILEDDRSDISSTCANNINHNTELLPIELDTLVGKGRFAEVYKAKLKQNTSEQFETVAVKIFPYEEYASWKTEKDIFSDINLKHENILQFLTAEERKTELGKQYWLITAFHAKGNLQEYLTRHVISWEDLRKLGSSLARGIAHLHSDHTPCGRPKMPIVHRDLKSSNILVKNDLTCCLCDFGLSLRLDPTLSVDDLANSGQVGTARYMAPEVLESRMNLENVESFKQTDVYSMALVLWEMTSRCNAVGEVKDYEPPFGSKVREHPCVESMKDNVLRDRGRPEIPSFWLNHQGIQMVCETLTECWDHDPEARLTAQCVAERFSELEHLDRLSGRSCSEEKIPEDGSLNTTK
Sequence of UniProt Q9UBE8 (whole entry, looked up): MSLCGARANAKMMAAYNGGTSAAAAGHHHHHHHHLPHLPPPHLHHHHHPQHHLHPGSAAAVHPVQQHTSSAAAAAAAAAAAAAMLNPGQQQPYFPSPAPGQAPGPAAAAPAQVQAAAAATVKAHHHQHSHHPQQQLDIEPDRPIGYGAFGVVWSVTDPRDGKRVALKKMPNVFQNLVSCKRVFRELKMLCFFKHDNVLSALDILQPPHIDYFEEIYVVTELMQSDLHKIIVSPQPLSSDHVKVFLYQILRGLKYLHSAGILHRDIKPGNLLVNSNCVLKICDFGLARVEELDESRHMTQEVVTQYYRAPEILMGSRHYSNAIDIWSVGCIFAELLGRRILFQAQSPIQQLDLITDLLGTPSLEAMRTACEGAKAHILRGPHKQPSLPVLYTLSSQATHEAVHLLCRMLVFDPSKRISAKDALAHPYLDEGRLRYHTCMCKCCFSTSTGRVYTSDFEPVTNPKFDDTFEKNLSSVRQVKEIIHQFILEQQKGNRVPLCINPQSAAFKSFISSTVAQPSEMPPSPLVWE
Sequence of UniProt O75747 (whole entry, looked up): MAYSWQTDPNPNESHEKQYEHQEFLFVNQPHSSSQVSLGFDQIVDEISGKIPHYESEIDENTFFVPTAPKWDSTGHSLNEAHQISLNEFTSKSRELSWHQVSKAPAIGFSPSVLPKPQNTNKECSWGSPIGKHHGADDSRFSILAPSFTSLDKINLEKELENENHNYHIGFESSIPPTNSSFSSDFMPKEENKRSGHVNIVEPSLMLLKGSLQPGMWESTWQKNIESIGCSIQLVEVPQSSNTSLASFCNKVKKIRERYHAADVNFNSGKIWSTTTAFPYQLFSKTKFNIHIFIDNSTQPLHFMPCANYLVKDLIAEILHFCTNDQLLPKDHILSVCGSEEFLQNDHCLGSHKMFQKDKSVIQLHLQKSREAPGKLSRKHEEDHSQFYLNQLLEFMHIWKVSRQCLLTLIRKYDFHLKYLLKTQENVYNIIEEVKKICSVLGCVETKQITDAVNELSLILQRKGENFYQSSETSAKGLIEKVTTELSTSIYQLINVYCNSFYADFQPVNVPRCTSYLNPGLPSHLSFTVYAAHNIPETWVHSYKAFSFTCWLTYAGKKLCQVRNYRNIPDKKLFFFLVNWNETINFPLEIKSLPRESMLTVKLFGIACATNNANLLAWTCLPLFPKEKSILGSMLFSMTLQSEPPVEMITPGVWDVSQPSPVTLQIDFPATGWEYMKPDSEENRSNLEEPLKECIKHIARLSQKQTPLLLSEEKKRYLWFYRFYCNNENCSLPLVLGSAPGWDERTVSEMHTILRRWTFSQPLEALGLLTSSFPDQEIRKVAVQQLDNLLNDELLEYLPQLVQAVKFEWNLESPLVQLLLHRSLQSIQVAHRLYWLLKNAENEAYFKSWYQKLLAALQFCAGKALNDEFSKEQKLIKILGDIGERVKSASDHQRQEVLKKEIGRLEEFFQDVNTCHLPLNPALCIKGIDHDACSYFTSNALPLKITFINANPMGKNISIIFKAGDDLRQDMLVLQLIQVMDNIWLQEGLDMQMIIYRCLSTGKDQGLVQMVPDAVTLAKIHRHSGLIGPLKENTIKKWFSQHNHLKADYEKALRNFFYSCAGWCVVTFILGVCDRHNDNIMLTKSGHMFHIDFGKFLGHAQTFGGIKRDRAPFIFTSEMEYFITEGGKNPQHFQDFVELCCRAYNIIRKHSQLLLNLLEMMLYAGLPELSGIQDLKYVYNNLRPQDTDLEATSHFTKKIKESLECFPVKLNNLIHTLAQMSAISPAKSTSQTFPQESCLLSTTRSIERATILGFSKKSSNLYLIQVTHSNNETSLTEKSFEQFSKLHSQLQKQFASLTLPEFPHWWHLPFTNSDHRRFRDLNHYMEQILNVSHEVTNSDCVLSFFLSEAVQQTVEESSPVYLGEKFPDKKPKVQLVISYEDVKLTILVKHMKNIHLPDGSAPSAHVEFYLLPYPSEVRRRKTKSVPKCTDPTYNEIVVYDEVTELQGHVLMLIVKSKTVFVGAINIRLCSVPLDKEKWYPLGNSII
Sequence of UniProt Q13188 (whole entry, looked up): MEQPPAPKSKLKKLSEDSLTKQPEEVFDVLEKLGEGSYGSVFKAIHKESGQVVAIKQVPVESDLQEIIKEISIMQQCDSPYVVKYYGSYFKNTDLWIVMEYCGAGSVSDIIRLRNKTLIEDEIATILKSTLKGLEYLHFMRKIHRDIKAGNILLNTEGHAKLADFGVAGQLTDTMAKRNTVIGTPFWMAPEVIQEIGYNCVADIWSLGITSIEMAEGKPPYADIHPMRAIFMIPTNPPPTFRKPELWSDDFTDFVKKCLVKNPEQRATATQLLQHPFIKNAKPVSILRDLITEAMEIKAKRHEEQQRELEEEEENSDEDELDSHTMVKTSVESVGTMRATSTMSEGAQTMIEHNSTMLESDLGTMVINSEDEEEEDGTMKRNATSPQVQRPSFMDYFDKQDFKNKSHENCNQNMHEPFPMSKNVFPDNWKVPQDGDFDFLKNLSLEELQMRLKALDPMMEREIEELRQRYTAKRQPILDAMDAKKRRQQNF
Sequence of UniProt Q00537 (whole entry, looked up): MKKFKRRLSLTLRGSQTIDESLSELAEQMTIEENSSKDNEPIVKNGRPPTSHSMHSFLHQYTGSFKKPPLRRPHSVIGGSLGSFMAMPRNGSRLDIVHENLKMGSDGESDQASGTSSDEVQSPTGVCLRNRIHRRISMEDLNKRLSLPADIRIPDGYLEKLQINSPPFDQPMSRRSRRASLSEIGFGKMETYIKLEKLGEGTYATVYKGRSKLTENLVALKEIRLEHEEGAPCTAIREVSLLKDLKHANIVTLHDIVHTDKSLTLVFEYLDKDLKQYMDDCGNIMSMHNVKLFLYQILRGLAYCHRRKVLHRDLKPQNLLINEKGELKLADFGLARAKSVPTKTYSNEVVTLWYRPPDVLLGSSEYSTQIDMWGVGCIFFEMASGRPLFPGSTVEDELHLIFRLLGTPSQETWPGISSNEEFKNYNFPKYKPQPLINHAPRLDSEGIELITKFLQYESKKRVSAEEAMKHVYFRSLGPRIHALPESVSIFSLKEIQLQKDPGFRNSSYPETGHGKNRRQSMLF

Study 1
Structure (SMILES): Cc1cc(C)c(-n2ccn3nc(-c4cccnc4)cc23)cc1NC(=O)c1cc(C#N)cc(S(F)(F)(F)(F)F)c1
Method: competition with immobilised ligand
Tested at: 0.1 µM
The remaining binding was 78.6% (TGF-beta receptor type-2 (TGFBR2, Homo sapiens, UniProt P37173); cell-free assay).
The remaining binding was 86.2% (Homeodomain-interacting protein kinase 2 (HIPK2, Homo sapiens, UniProt Q9H2X6); cell-free assay).
It gave 85.8% for remaining binding (Serine/threonine-protein kinase TNNI3K (TNNI3K, Homo sapiens, UniProt Q59H18); cell-free assay).
The remaining binding was 83.5% (Serine/threonine-protein kinase DCLK3 (DCLK3, Homo sapiens, UniProt Q9C098); cell-free assay).
Tyrosine-protein kinase ABL1, phosphorylated (ABL1, Homo sapiens, UniProt P00519, M351T); cell-free assay — remaining binding: 82.6%.
It gave 89.4% for remaining binding (Mast/stem cell growth factor receptor Kit (KIT, Homo sapiens, UniProt P10721, V559D/V654A); cell-free assay).
For Activin receptor type-1 (ACVR1, Homo sapiens, UniProt Q04771); cell-free assay: remaining binding read 83.3%.
For SRSF protein kinase 1 (SRPK1, Homo sapiens, UniProt Q96SB4); cell-free assay: remaining binding read 67.4%.
For Mitogen-activated protein kinase 14 (MAPK14, Homo sapiens, UniProt Q16539); cell-free assay: remaining binding read 0%.
The remaining binding was 74.9% (Ribosomal protein S6 kinase alpha-6, C-terminal kinase domain (RPS6KA6, Homo sapiens, UniProt Q9UK32); cell-free assay).
For Phosphatidylinositol 3-kinase C2 domain-containing subunit gamma (PIK3C2G, Homo sapiens, UniProt O75747); cell-free assay: remaining binding read 60.7%.
It gave 90.6% for remaining binding (Serine/threonine-protein kinase DCLK2 (DCLK2, Homo sapiens, UniProt Q8N568); cell-free assay).
Serine/threonine-protein kinase 3 (STK3, Homo sapiens, UniProt Q13188); cell-free assay — remaining binding: 85.4%.
The remaining binding was 94.4% (ALK tyrosine kinase receptor (ALK, Homo sapiens, UniProt Q9UM73); cell-free assay).
For Mast/stem cell growth factor receptor Kit (KIT, Homo sapiens, UniProt P10721, T670I/V559D); cell-free assay: remaining binding read 67.9%.
Ephrin type-A receptor 6 (EPHA6, Homo sapiens, UniProt Q9UF33); cell-free assay — remaining binding: 82.6%.
Mitogen-activated protein kinase 7 (MAPK7, Homo sapiens, UniProt Q13164); cell-free assay — remaining binding: 100%.
For Serine/threonine-protein kinase MRCK beta (CDC42BPB, Homo sapiens, UniProt Q9Y5S2); cell-free assay: remaining binding read 95.5%.
The remaining binding was 99.4% (Fibroblast growth factor receptor 4 (FGFR4, Homo sapiens, UniProt P22455); cell-free assay).
It gave 100% for remaining binding (Serine/threonine-protein kinase NLK (NLK, Homo sapiens, UniProt Q9UBE8); cell-free assay).
For Tyrosine-protein kinase ABL1, non-phosphorylated (ABL1, Homo sapiens, UniProt P00519, F317I); binding: remaining binding read 65.8%.
The remaining binding was 99.3% (Cyclin-dependent kinase 17 (CDK17, Homo sapiens, UniProt Q00537); cell-free assay).
It gave 77.4% for remaining binding (Cyclin-dependent kinase-like 1 (CDKL1, Homo sapiens, UniProt Q00532); binding).

Study 2
Target: RING finger protein unkempt homolog, zinc fingers 1-6, GST-SBP tag (UNK, Homo sapiens, UniProt Q9C0B0, residues 30-357)
Method: RNA Bind-n-Seq
Molecule type: RNA
Matrix: in vitro
Tested at: not given
Setting: RNA with constant flanks, human and mouse sites, ends assumed
Relative to: input RNA pool
Reading: higher = stronger binding
Target sequence (chain): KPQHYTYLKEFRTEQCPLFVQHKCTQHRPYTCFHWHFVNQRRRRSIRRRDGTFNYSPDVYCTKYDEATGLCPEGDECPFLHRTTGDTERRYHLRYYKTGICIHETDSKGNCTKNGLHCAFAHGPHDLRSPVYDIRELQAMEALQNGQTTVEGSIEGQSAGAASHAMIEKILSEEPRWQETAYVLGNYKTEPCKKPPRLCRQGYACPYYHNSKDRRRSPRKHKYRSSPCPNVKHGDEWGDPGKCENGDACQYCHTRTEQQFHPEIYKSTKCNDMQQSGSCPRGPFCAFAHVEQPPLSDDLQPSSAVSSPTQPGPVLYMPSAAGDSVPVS
With `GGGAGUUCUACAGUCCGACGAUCUUCUCCUCUUUCUUUCCUUCCCCUUCACCUUCCCCAUCUAACCCCCAAACAUUAUUGUCCAAACAUGACUGGACAGCAACUUUUGUUUCUUGACCCUGUGGUAUGACAGUCUGCUAAUAUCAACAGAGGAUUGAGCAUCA` the bound/input enrichment was 1.08 ratio.
`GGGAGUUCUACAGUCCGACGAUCGUCCAGUUAAACAAGAAGUGUUCAGCUGUAAAACAUAAUAGAAUCAAGGGAAUUCCCAAACUCGAUGAUGCCAAUGAUGCAGGGGGCCGAAACUCCACUGAGUGUACGCUUAUCCUGACUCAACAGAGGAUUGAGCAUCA` has a bound/input enrichment of 0.196 ratio.
With `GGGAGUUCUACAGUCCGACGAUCCUCAGGCCAAGACUUCCCAAGAUUAUCAGGCCUUAACAGUACAUGACAAUUUGGCUAUGAAAAUUUGCAAUGAGAUCUUAACAAGUCCGUGCUCGCCAGAAAUUCGAGUCUAUACAAAAGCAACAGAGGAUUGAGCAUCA` the bound/input enrichment was 0.108 ratio.
`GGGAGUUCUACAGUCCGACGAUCAGUUUAAUGUAUAAAGAUCCUCUAGAAAAUGAUAAUAUUGUGUAUUAAGACAUUCCUUAAUUAGGACAAAAUGGCUGCUGUAUAUUUACUAUAUGGAGUUCUGAGUUAAAUACCAUCCUUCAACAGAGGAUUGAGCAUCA` has a bound/input enrichment of 2.26 ratio.
The bound/input enrichment of `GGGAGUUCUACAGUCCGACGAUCAUGCAGAGACUCCCCAUGCAAUCUGAAUGAAACCGGUGUUGGCUGGAAUACUUUUUCUCUUCUGUGAGCUAUGUUAAUUCUGUCUCCAAUGGGCCCAAUGUUUGAAAAGUCAGAUGUCUACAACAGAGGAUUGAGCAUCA` is reported as 0.154 ratio.
`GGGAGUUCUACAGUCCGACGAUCGCUUUUCAAGCCAAGGAUGUGGAAGGAUCUACUUCUCCUCAAAUAGGAGAUAAGGUUGAAUUUAGUAUUAGUGACAAACAGAGGCCUGGACAGCAGGUUGCAACUUGUGUGCGACUUUUACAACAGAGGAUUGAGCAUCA` gave a bound/input enrichment of 2.05 ratio.
The bound/input enrichment of `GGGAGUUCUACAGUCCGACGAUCGCUGUCAUGUACGUGUGCAAAGUGGCGGCCGAGUGGAGGAGCACCUUCCACAAGGACGUGGUUGUCGAUUUGGUGUGUUACCGGCGCAACGGCCACAACGAGAUGGAUGAGCCCAUGUUCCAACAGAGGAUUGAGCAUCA` is reported as 0.0443 ratio.
`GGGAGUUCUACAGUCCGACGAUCAUAUAUUGUAACAGAAUGUAUAAAUAUUUUUGAUAAAACAGUCUAUAUUUUAUUAAAAAAUGAAUUAUAACACUAAAGCUGUACCUCAAAAGUCUCAAAAAUAAUUUGAUGAAAUAUUUUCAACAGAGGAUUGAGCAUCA` gave a bound/input enrichment of 0.31 ratio.

Study 3
Target: Interferon regulatory factor 7, full length, phosphomimetic (IRF7, Homo sapiens, UniProt Q92985, residues 1-503, S471D/S472D/S475D/S476D/S477D/S483D/S484D/S487D)
Method: protein-binding microarray
Molecule type: double-stranded DNA, one strand shown
Matrix: in vitro
Tested at: 2200 nM top
Setting: 60-bp whole probe
Together with: salmon DNA 0.4 mg/ml
Relative to: random background probes
Reading: higher = stronger binding
All sequences stand within: GCCTAGCAC … GTGCTAGGTCTTGATTCGCTTGACGCTGCTG
Residues (chain): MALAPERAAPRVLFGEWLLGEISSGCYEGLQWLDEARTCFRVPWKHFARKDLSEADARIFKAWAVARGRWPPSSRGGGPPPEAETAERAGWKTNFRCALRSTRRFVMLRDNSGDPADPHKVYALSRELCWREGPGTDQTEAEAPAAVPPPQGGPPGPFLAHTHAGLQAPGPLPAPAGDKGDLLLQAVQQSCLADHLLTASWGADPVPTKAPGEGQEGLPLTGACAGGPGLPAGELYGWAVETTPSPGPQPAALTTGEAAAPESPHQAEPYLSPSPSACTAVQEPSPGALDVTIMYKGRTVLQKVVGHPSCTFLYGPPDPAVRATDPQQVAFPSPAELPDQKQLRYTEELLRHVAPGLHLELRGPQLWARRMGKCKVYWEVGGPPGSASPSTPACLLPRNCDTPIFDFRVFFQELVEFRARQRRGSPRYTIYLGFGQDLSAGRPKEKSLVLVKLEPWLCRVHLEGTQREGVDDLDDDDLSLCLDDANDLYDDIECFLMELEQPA
For `GACGGTTTCCTATCCCTGAC`, “fitted relative affinity” read 2.6 z-score.
`GACGGAGTGCTTATCCTGAC`: “fitted relative affinity” 0.588 z-score.
For `TTAGCACTGAGTCTCGATTA`, “fitted relative affinity” read -0.207 z-score.
`TTTGGTATCCTTTTCCTTTA` — result for “fitted relative affinity”: 2.6 z-score.
`TCAGCTTTCCTTTATGTACT` — result for “fitted relative affinity”: 2.32 z-score.
For `TCACCTTTCTCTCTGTGACT`, “fitted relative affinity” read 3.01 z-score.
Under “fitted relative affinity”, `GACGACCTCAGTATCGAGAC` is recorded as -0.112 z-score.
For `GACGAATTGAGTATCGAGAC`, “fitted relative affinity” read -0.263 z-score.

Study 4
Target: CRIPT, C-terminal peptide
Method: DHFR complementation, deep sequencing
Matrix: yeast
Setting: single substitutions, model-inferred values
Relative to: wild type
Reading: higher = weaker binding
Starting sequence: ERBIN, PDZ domain 1 (human); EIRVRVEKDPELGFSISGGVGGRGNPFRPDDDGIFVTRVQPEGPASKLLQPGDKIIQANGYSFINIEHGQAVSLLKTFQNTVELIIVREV; partner TKNYKQTSV
`P41V`: “binding free energy change” 0.3 kcal/mol.
`Q70T`: “binding free energy change” -0.0192 kcal/mol.
For `D32N`, “binding free energy change” read 0.237 kcal/mol.
For `G43N`, “binding free energy change” read 1.28 kcal/mol.
`K8P` — result for “binding free energy change”: 0.525 kcal/mol.
`F78M` — result for “binding free energy change”: 0.0625 kcal/mol.
Under “binding free energy change”, `V90S` is recorded as 0.0169 kcal/mol.
Under “binding free energy change”, `R5F` is recorded as 0.0594 kcal/mol.

Other studies, line by line
`Cc1ccnc(NS(=O)(=O)c2ccc(N)cc2)n1` gave a viability of 93.1% (HaCaT; 100 µM, 18 h).
`CC(C)n1cnc(-c2ccc(F)cc2)c1-c1ncc(C(=O)Nc2ccc(N3CCN(C)CC3)cc2)[nH]1`: “patients with increased interferon-gamma” 0% (phase 2a trial; idiopathic pulmonary fibrosis patients; all dose arms pooled, grade 5).
The infection rate of `NNc1nncc2ccccc12` is reported as 105% (Plasmodium berghei; inhibitor; Huh-7, liver stage; 10 µM, 24 h; relative to: untreated control).
`COC(=O)C1C(C(=O)OC)C2(OC(c3ccccc3)=CC2=O)C12OC(c1ccccc1)=CC2=O` (centres unmarked) has a remaining compound of 22% (human, microsomes or S9; 2 µM, 0.5 h).
With `C[C@@H]1CCC[C@H](C)N1NC(=O)c1ccc(Cl)c(S(N)(=O)=O)c1` the nuclei count was 0.225 z-score (mouse MPNST tumor cells; high-content nuclear imaging, refers to: cell number; 10 µM, 12 h, mean of 2 replicates; relative to: plate mean, higher = more cells).
`O=C1NC(=O)C(c2ccccc2)(c2ccccc2)N1` gave a viability of 99.6% (HaCaT; 100 µM, 18 h).

Excerpt of the above (study 1):
The remaining binding was 78.6% (TGF-beta receptor type-2 (TGFBR2, Homo sapiens, UniProt P37173); cell-free assay).
The remaining binding was 86.2% (Homeodomain-interacting protein kinase 2 (HIPK2, Homo sapiens, UniProt Q9H2X6); cell-free assay).
It gave 85.8% for remaining binding (Serine/threonine-protein kinase TNNI3K (TNNI3K, Homo sapiens, UniProt Q59H18); cell-free assay).
The remaining binding was 83.5% (Serine/threonine-protein kinase DCLK3 (DCLK3, Homo sapiens, UniProt Q9C098); cell-free assay).
Tyrosine-protein kinase ABL1, phosphorylated (ABL1, Homo sapiens, UniProt P00519, M351T); cell-free assay — remaining binding: 82.6%.
It gave 89.4% for remaining binding (Mast/stem cell growth factor receptor Kit (KIT, Homo sapiens, UniProt P10721, V559D/V654A); cell-free assay).
For Activin receptor type-1 (ACVR1, Homo sapiens, UniProt Q04771); cell-free assay: remaining binding read 83.3%.
For SRSF protein kinase 1 (SRPK1, Homo sapiens, UniProt Q96SB4); cell-free assay: remaining binding read 67.4%.
